Assay results of several laboratories.
Compare with care: the assays were run in different laboratories. “And” joins repeats or separate records; there may be more than shown.
Target: Serine/threonine-protein kinase 24 (STK24, Homo sapiens, UniProt Q9Y6E0)
Sequence of UniProt Q9Y6E0 (whole entry, looked up): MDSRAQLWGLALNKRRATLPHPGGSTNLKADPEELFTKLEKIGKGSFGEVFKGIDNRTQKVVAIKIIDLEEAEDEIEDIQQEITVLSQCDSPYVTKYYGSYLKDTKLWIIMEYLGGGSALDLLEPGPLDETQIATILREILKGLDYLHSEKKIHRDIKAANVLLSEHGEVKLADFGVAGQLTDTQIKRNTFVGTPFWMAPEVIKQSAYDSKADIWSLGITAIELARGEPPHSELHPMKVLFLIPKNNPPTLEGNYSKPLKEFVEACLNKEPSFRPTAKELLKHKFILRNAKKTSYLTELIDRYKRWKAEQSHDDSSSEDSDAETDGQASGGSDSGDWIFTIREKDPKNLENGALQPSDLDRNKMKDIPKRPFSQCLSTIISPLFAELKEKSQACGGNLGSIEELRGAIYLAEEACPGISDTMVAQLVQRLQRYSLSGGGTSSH

The remaining binding of `CNC(=O)C1CCN(c2cc(C)c(F)cc2NC(=O)c2ccc(-c3cc(O)ccc3C)c(C)c2)CC1` is reported as 97% (binding, competition with immobilised ligand; 1 µM).
With `C=CC(=O)Nc1cccc(-c2cnc3[nH]cc(C(=O)NC(C)(C)C)c3n2)c1` the inhibition was 32% (kinase activity; 0.1 µM).
`CC(C)=CC1OC(C)(C)C2C=C3C(=O)C(Cl)=CC(O)C3C3C(O)C4OC4C(=O)C132` (stereo not shown) gave a remaining binding of 84% (cell-free assay, competition with immobilised ligand; 10 µM).
For `COCC12C(=O)NC3C4(C(OC)CC1O)C1CC5(O)C(OC)C(O)C(OC(C)=O)(C1C5OC(=O)c1ccccc1)C3(O)C(OC)C24` (stereo not shown), the remaining activity was 108% and 104% (kinase activity, inhibitor, ProQinase kinase profiling; 25 µM; baseline: control).
For `Cc1cnc2nc1Nc1cccc(c1)COC/C=C/COCc1cc(ccc1OCCN1CCOCC1)N2`, the remaining signal was 100% (cell-free assay; 0.1 µM).
`COc1ccc(C(=O)/C=C/c2ccccc2-c2c[nH]c3ccc(C#N)cc23)c(O)c1` gave an inhibition of 2% (enzyme activity, inhibitor; 20 µM).
`COc1c(OCCCN2CCOCC2)ccc2c1N=C(NC(=O)c1cnc(N)nc1)N1CCN=C21` has a remaining activity of 112% (kinase activity, inhibitor; 1 µM; baseline: untreated control).
`COc1cc(Nc2nccc(-c3cnn4nc(OC)ccc34)n2)cc(C(F)(F)F)c1` has a remaining binding of 100% (binding, competition with immobilised ligand; 1 µM).
For `COc1ccc(NC(=O)Nc2ccc3c(c2)C(=O)N(C(C)CO)CC(C)C(CN(C)Cc2ccc4c(c2)OCO4)O3)cc1` (stereo not shown), the remaining activity was 94% (kinase activity, KinaseProfiler; 0.03 µM, species human; baseline: control).
For `CNC(=O)C[C@H](Cc1ccc(C#N)cc1)NC(=O)c1cc(-c2ccc(CN[C@H](C)c3ccc(C)cc3)o2)ccc1Cl`, “activity vs control” read 81% (enzyme activity, inhibitor; 1 µM).
`C=CC(=O)N1CCCC(n2c(=O)c3ncccc3n(Cc3ccc(Oc4ccccc4)cc3)c2=O)C1` (stereo not shown) has a remaining binding of 99% (cell-free assay, competition with immobilised ligand; 1 µM).
For `CN1CC[C@@H](COc2cnc(C#N)cc2-c2ccn3nc(NC(=O)C4CC4)cc3c2)C1`, the inhibition was 9% (enzyme activity, inhibitor; 1 µM).
For `NC(=O)C[C@H]1CCc2sc3ncnc(O[C@H]4CC[C@H](N5CCOCC5)CC4)c3c21`, the inhibition was 3% (enzyme activity, inhibitor; 10 µM).
The inhibition of `Cc1cccc(O[C@H]2CCC[C@@H](C(C)CNCc3ccncc3)C2)c1` (relative stereo) is reported as -6% (kinase activity, kinome panel screening; 1 µM).
`Cc1ccc(C(=O)Nc2ccc(CN3CCN(C)CC3)c(C(F)(F)F)c2)cc1C#Cc1cnc2cccnn12` has a Hill slope of 0.0667 (target engagement, NanoBRET; human cells).
The remaining activity of `O=C=[N][Ru-4]123([n]4c5ccc(O)cc5c5c6c(c7cc(F)c[n+]1c7c54)C(=O)NC6=O)[S+]1CC[S+]2CC[S+]3CC1` (stereo not shown) is reported as 43% (enzyme activity; 100 nM, human enzyme, with: 10 µM ATP; baseline: untreated).

A few entries again:
The inhibition of `Cc1cccc(O[C@H]2CCC[C@@H](C(C)CNCc3ccncc3)C2)c1` (relative stereo) is reported as -6% (kinase activity, kinome panel screening; 1 µM).
`COc1ccc(C(=O)/C=C/c2ccccc2-c2c[nH]c3ccc(C#N)cc23)c(O)c1` gave an inhibition of 2% (enzyme activity, inhibitor; 20 µM).
